Assay results pooled from the literature.
Compare with care: the assays were run in different laboratories. “And” joins repeats or separate records; there may be more than shown. Numbers after ± are the reported error. Bridge positions count the residues as written; N and C are the ends. Where no end group is shown, it is not given here. Ends that are not written are not given here. The star is where a group is joined. * marks the point of attachment.
HLA-DRA/HLA-DRB1: HLA-DRA/HLA-DRB1 (Homo sapiens, UniProt P01903+P01911)
F2: Prothrombin (F2, Bos taurus, UniProt P00735)
UniProt O43614, sequence (whole entry, unmodified, looked up): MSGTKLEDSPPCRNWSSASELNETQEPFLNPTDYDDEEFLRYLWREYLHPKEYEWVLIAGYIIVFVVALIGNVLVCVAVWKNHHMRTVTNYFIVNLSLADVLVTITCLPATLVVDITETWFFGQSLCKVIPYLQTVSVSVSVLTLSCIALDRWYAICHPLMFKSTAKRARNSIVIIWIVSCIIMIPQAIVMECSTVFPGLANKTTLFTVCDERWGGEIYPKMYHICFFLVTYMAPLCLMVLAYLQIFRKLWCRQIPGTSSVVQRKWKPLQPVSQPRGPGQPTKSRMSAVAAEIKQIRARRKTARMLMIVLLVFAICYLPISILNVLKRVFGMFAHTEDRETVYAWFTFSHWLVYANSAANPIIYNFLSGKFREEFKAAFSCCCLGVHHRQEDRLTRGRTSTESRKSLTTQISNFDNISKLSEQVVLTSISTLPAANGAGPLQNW
UniProt P41586, sequence (whole entry, unmodified, looked up): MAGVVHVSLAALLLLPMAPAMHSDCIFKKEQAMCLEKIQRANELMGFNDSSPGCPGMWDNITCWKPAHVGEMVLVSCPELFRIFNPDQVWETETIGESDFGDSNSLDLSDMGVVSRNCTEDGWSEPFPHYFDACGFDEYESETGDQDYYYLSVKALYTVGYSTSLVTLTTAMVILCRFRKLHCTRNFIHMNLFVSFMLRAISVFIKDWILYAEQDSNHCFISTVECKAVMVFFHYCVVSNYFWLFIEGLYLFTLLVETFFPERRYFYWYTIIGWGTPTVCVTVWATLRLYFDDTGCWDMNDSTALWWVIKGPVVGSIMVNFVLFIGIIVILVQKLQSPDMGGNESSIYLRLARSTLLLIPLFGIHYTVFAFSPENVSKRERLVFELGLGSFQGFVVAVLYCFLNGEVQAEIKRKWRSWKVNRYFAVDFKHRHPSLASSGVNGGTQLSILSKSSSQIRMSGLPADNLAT
UniProt P55212, sequence (whole entry, looked up): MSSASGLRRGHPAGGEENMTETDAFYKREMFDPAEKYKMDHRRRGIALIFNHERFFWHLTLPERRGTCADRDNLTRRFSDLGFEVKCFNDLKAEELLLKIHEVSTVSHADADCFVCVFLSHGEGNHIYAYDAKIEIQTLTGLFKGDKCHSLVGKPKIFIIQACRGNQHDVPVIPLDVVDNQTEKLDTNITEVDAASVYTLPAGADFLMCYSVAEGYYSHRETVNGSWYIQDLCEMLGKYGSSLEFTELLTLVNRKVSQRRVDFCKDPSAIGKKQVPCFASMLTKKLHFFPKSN
UniProt Q03518, sequence (whole entry, looked up): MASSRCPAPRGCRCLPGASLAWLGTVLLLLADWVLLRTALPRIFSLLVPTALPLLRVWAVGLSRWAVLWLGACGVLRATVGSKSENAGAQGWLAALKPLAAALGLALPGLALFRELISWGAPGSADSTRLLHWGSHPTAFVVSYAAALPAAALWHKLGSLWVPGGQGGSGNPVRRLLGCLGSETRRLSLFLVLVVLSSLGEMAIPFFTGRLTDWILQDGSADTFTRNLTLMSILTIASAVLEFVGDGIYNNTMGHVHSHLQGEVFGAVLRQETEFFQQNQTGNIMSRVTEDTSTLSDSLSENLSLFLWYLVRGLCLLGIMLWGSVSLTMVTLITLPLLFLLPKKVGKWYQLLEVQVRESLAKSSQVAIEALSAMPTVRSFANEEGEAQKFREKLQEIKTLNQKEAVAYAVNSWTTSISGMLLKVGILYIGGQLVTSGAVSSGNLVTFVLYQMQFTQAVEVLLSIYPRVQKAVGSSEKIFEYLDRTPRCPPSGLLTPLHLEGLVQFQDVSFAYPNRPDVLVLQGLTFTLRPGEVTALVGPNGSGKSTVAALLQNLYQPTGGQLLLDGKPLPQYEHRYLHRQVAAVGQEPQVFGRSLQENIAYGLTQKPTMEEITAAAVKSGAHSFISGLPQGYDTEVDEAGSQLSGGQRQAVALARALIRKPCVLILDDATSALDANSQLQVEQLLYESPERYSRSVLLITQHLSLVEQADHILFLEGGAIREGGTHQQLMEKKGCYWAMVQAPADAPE
UniProt P93026, sequence (whole entry, looked up): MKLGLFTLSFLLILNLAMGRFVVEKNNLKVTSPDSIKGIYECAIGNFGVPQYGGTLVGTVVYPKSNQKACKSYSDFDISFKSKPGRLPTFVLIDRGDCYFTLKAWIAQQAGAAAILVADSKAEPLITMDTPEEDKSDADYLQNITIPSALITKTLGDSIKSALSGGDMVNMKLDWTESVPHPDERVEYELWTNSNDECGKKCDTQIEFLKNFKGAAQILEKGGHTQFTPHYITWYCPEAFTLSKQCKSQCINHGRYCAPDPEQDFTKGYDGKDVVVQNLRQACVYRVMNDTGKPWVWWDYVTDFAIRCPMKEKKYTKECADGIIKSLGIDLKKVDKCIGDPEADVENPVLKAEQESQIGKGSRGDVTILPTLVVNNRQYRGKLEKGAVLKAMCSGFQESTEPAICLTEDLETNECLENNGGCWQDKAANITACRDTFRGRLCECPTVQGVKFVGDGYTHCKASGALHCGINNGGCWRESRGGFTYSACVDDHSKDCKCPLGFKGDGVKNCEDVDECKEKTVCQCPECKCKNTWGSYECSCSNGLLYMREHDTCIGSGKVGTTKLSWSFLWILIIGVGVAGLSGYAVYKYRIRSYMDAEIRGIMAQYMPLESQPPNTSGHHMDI
UniProt O88703, sequence (whole entry, unmodified, looked up): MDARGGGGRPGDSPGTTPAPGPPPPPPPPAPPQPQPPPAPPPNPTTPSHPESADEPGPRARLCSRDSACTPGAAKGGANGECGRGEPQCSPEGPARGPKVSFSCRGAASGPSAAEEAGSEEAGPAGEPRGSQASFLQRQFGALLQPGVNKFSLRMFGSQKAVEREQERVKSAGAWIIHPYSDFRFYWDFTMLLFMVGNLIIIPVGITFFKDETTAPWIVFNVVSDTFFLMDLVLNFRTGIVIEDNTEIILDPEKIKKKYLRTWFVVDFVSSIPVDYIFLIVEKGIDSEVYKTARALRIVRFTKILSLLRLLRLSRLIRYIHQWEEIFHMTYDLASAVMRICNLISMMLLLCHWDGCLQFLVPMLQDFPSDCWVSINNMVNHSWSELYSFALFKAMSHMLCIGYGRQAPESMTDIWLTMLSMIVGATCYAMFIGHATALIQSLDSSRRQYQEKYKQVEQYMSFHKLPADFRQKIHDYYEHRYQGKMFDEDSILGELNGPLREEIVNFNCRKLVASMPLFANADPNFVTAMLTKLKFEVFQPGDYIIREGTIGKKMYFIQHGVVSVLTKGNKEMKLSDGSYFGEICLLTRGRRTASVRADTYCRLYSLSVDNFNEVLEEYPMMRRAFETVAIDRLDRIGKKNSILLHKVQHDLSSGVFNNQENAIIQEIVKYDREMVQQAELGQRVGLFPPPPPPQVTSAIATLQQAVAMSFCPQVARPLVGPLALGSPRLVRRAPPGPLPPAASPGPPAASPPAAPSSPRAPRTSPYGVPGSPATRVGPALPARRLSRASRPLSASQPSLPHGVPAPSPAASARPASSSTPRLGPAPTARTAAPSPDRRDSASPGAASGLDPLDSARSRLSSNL
UniProt P34897, sequence (whole entry, unmodified, looked up): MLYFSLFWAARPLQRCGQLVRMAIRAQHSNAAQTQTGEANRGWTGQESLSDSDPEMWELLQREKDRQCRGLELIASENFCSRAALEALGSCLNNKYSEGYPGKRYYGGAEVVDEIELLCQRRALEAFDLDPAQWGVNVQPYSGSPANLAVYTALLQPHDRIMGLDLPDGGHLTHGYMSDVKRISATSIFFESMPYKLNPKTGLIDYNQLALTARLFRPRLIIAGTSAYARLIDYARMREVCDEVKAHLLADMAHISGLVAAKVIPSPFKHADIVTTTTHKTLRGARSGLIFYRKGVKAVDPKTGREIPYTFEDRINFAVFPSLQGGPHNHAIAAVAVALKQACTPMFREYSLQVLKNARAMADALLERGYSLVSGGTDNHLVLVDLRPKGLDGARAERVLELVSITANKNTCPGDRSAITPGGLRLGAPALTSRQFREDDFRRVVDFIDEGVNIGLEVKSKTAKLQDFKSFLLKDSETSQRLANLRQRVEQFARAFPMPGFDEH
UniProt Q14994, sequence (whole entry, looked up): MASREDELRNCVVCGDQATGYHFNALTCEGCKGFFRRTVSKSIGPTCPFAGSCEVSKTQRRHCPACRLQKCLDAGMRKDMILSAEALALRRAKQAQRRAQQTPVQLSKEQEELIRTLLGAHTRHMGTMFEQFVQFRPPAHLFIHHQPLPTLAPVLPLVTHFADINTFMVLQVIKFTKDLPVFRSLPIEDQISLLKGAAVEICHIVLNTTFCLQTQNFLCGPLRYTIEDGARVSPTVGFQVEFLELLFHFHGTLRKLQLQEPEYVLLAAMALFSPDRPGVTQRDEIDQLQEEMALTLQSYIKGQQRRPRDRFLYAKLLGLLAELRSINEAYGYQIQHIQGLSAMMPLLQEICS

`Polymyxin B` has a survival of 0% (mouse; intraperitoneal, 30 mg/kg single dose, day 1).
Under “optimal CaCl2 concentration”, `Cbz-Phe-Arg-{AMC} (Z-FR-AMC; Cbz = O=C(OCc1ccccc1)*; AMC = Cc1cc(=O)oc2cc(N*)ccc12)` is recorded as about 6 mM (Metacaspase-2 (MCA2, Trypanosoma brucei brucei, UniProt Q585F3); kcat/KM, substrate).
Under “percentile rank of IC50”, `IDLSDVELDDLGKDEL` is recorded as 92.4% (HLA-DRA/HLA-DRB1; binding, radiolabeled peptide competition; peptide).
`nonaarginine` has a kon of 2.85e+07 ± 3e+06 M⁻¹ s⁻¹ (PorA peptide pore; peptide binding, planar bilayer single-channel recording; 0.5 µM, pH 7.4, -25 mV, cis side, 150 mM KCl).
`dynorphin` gave a ΔF/F0 of 0.118 and 3.13 and 0.624 and 1.88 and -1.65 and -0.728 (Orexin receptor type 2 (HCRTR2, Homo sapiens, UniProt O43614, del254-292/I293E/K294R/L160H/M161K/Q254E); sensor fluorescence, fluorescence imaging; HEK293T; concentration not given, unit not given; relative to: baseline).
With `Ac-TFELQGGGPRGVNL-NH2 (N-acetyl, C-amide)` the Km was 326 ± 79 µM (F2; substrate, HPLC; bovine thrombin; pH 7.4, 25 °C, 0.1% PEG).
Under “substrate release rate constant”, `PAALVAC(Mca) (Mca-labelled; Mca = COc1ccc2c(CC(=O)*)cc(=O)oc2c1)` is recorded as 0.07 h⁻¹ (72 kDa type IV collagenase (MMP2, Homo sapiens, UniProt P08253); substrate, fluorescence).
`Aprotinin` gave an inhibition of -29 ± 4.6% (Ribosomal processing cysteine protease Prp (prp, Staphylococcus aureus, UniProt Q2FXS9, N63Q); 10 µM, enzyme dimer 21.4 nM, with: FITC peptide substrate 0.5 µM).
`evodiamine` has an efficacy of -65.8 ± 1.38% (Cholinesterase (BCHE, Homo sapiens, UniProt P06276); inhibitor; Triton).
For `TLEPN`, the inhibition was about 34.4% (Angiotensin-converting enzyme (ACE, Homo sapiens, UniProt P12821); enzyme activity, inhibitor, WST; peptide; 16.0 mM).
`insulin human` gave a fold change of 0.998 (item: PTEN mRNA; uninfected mouse, brain; i.p., dose not given; relative to: PBS).
`abamectin` — result for activity: “inactive” (Nuclear receptor subfamily 1 group I member 3 (Homo sapiens, UniProt Q14994); cell-based; concentration not given).
`maxadilan` gave an Emax of 78 ± 2% (Pituitary adenylate cyclase-activating polypeptide type I receptor (ADCYAP1R1, Homo sapiens, UniProt P41586, del89-109); calcium mobilization, agonist, Fluo-8 AM; COS-7; AUC over 2 min).
The IC50 of `PPAENSSAPEAEQGGAE` is reported as 50 µM (HLA-DRA/HLA-DRB1; binding, inhibitor, radiolabelled peptide competition; peptide; with: radiolabelled peptide).
`cGMP` has a −TΔS of 426000 kcal/mol (Potassium/sodium hyperpolarization-activated cyclic nucleotide-gated channel 2, C-terminal region (Hcn2, Mus musculus, UniProt O88703, R591A); binding, ITC).
`Ac-AESDLPTVELQGVVPRGVNL-NH2 (N-acetyl, C-amide)` has a Km of 270 ± 43 µM (F2; substrate, HPLC hydrolysis; pH 7.4, 25 °C, 0.1% PEG, 100 mM NaCl).
For `glucagon`, the leg extraction was 31 ± 2.2% (isotope dilution; human, non-diabetic; intravenous infusion, 0.05 ng/kg/min, 100 to 120 min).
`heparin sodium`: “injection site erythema swelling” 0% (healthy Chinese adult volunteers; continuous intravenous infusion, 8 IU/kg/h, 5 days).
`IETVDNKTSFRAY` — result for “translocated peptide size”: 10 to 13 amino acids (Antigen peptide transporter 1/Antigen peptide transporter 2 (Homo sapiens, UniProt Q03518+Q03519); Edman degradation; peptide, B-LCL 721 cells).
`Ac-DEVD-CHO` gave a Hill slope of -0.9 (Caspase-6 (CASP6, Homo sapiens, UniProt P55212); inhibitor).
For `benzalkonium bromide`, IC50 read “inactive” (Acetylcholinesterase (ACHE, Homo sapiens, UniProt P22303); enzyme activity, inhibitor).
`Levobupivacaine` — result for “mean open time”: 173 ms (Sodium channel protein type 4 alpha, BTX-activated (Oryctolagus cuniculus, UniProt G1SLL9); channel gating).
Under “change in Tm”, `YRVAAA` is recorded as “increased” (VSR1, PA domain (Arabidopsis thaliana, UniProt P93026); differential scanning fluorimetry; peptide; 5 mM, pH 7.1).
With `DPDPE` the retention time was 15.9 min (RP-HPLC; HALO C18 column; 25 µM, formic acid/methanol, 25 min gradient).
For `aspterric acid`, the inhibition was 8.83% (root length; Arabidopsis thaliana Col-0 seeds; 3.125 µg/mL).
For `tetrahydrofolate`, the Vmax was 63 fluorescence units/s (Serine hydroxymethyltransferase, mitochondrial (SHMT2, Homo sapiens, UniProt P34897); enzyme activity, substrate, MTHFD2-coupled NADH fluorescence).
With `CHAAGDYAYATFGFTC (disulfide 1-16 (inferred)) (cyclic, disulfide)` the enrichment score was 915 (Carbapenem-hydrolyzing beta-lactamase KPC (KPC-2, Klebsiella pneumoniae, UniProt Q9F663); phage display selection; after 3 rounds; relative to: naive library frequency, direction not given).
For `HVLVMSATRR`, the chloride was 112 mmol/L and 114 mmol/L and 113 mmol/L (peptide, C57BL/6J mice, male, serum; subcutaneous osmotic pump, 3 mg/kg/day peptide basis, 8 weeks).
With `ginkgolide B` the koff was 0.083 s⁻¹ (Rdl (Drosophila melanogaster, UniProt P25123); Drosophila; with: GABA EC50).
`FYGQTLGQAQAHSQEQ` — result for “percentile rank of IC50”: 92.4% (HLA-DRA/HLA-DRB1; binding, radiolabeled peptide competition; peptide).
For `Ac-APPIPPPRRKR-NH2 (N-acetyl, C-amide)`, “C–D stretch band area” read 15 ± 1% (Tyrosine-protein kinase Fyn, SH3 domain (FYN, Homo sapiens, UniProt P06241); binding, FTIR spectroscopy; peptide; 4 mM, pH 7.0, band A, protein complex).
